Measurements from different studies.
Compare with care: the assays were run in different laboratories. Numbers after ± are the reported error. Values after ≈ are worked out from the molar mass of the structure shown.

SMILES	target or system	test	system	conditions	how to read	quantity	value
COc1c(CCC[P+](c2ccccc2)(c2ccccc2)c2ccccc2)cc2c(c1OC)OCO2.[I-]	MCF7	SRB				TGI	-4.97 log M
C#CC[C@@H](N)C(=O)N[C@H](CO)C(=O)N[C@@H](C(=O)N[C@H](CO)C(=O)N[C@H](CCC(=O)O)C(=O)N[C@@H](C(=O)N[C@H](CCC(N)=O)C(=O)N[C@H](CC(C)C)C(=O)N[C@H](CCSC)C(=O)N[C@H](Cc1c[nH]cn1)C(=O)N[C@H](CC(N)=O)C(=O)N[C@H](CC(C)C)C(=O)NCC(=O)N[C@H](CCCCN)C(=O)N[C@H](Cc1c[nH]cn1)C(=O)N[C@H](CC(C)C)C(=O)NCC(=O)N[C@H](CO)C(=O)N[C@H](CCSC)C(=O)N[C@H](CCC(=O)O)C(=O)N[C@H](CCCNC(=N)N)C(=O)N[C@@H](C(=O)N[C@H](Cc1ccccc1)C(=O)N[C@H](C)C(=O)N[C@H](CC(C)C)C(=O)N[C@H](CCCNC(=N)N)C(=O)N[C@H](Cc1ccccc1)C(=O)N[C@H](CCCCN)C(=O)N[C@H](CC(C)C)C(=O)N[C@H](CCC(N)=O)C(=O)N[C@H](CC(C)C)C(=O)N[C@@H](C(N)=O)[C@H](C)CC)C(C)C)[C@H](C)CC)C(C)C	hemagglutinin influenza A/California/07/2009 H1N1					IC50	124 µM
COc1ccc2c(ccc3oc([N+](=O)[O-])c(OC)c32)c1	Mycobacterium bovis BCG		1173 P2			MIC90	> 32 µg/mL
CC[C@@H](NC(=O)CNC(=O)[C@@H](CC(C)C)NC(=O)CNC(=O)[C@H](N)CCC(N)=O)C(=O)N[C@H](CC(=O)O)C(=O)N[C@H](CCC(=O)O)C(=O)N[C@H](CCSC)C(=O)N[C@H](CC(C)C)C(=O)N[C@H](CCC(N)=O)C(=O)NCC(=O)N[C@H](Cc1ccccc1)C(=O)N[C@H](C)C(=O)N[C@@H](C(=O)N[C@H](C)C(=O)N[C@@H](C(=O)N[C@H](CCCCN)C(=O)N[C@H](CCSC)C(=O)NCC(=O)N[C@H](C)C(=O)N[C@H](Cc1ccc(O)cc1)C(=O)N[C@H](CCCCN)C(=O)N[C@H](C)C(=O)N[C@H](Cc1c[nH]c2ccccc12)C(=O)O)C(C)C)C(C)C	hemagglutinin influenza A/California/07/2009 H1N1					IC50	24 µM
CS(=O)(=O)CCCn1c(Cn2c(=O)n(CC(F)(F)F)c3ccncc32)cc2cc(Cl)ccc21	respiratory syncytial virus	RT-qPCR	hospitalized infants 1-24 months, nasal swab	oral, 6, 4.5 or 3 mg/kg daily, day 14, mid dose by age cohort	relative to: baseline	LS mean viral load change	-4.25 log10 copies/mL
CC(C)CC(=O)OC[C@H]1O[C@@](C#N)(c2ccc3c(N)ncnn23)[C@H](O)[C@@H]1O	NMDA receptor Phencyclidine site (rat)			20 µM		inhibition	3%
O=C(Cc1ccc(Cl)cc1)N[C@H]1CCOC1=O	ExpR1 (Pectobacterium carotovorum)	cellulase activity, agonist	Pectobacterium carotovorum, single-ExpR1 strain	200 µM, 4 h	relative to: OHHL	activation	5%
CC(C)N1CCC(NC2CCN(c3cccc(-c4cc5cc(F)ccc5[nH]4)c3)CC2)CC1	BT-549					CC50	6.55 µM
CN1CC[C@]23c4c5ccc(O)c4O[C@H]2[C@@H](OS(=O)(=O)O)C=C[C@H]3[C@H]1C5		hot water tail withdrawal test	normal Sprague-Dawley rats	dose not given		time to return to baseline latency	2 to 3 h
CC[C@H](C)[C@@H]1NC(=O)[C@@H]2CCCN2C(=O)[C@H](CC(C)C)NC(=O)[C@H](CC(C)C)NC(=O)CNC(=O)[C@@H](NC(=O)[C@@H](NC(=O)[C@H](CC(=O)O)NC(=O)CNC(=O)[C@@H](NC(=O)[C@H](C)NC(=O)CNC(=O)[C@H](CCCCN)NC(=O)[C@H](CC(C)C)NC(=O)[C@H](CC(C)C)NC(=O)[C@H](CCCCN)NC(=O)CNC(=O)[C@@H](NC(=O)[C@@H](N)CC(C)C)C(C)C)C(C)C)C(C)C)CSSC[C@@H](C(=O)O)NC1=O		RNA-seq, item: Ankrd9	mouse, traumatic brain injury model, frontal cortex and hippocampus	dose not given	relative to: TBI alone	log2 fold change	-0.875
CCCCC1(CCCC)CN(c2ccccc2)c2cc(SC)c(OCC(=O)N[C@@H](C(=O)NCC(=O)O)c3ccccc3)cc2S(=O)(=O)C1		item: HDL cholesterol	human, serum	2.5 mg once daily, day 14		serum HDL-C	52.1 mg/dL
COc1cc(CCC[P+](c2ccccc2)(c2ccccc2)c2ccccc2)c(OC)c2c1OCO2.[I-]	SK-MEL-2	SRB				TGI	-4.98 log M
CC[C@H](C)[C@H](NC(=O)[C@H](C)NC(=O)[C@H](CCCCN)NC(=O)[C@H](CC(C)C)NC(=O)[C@H](C)NC(=O)[C@@H](NC(=O)[C@H](Cc1c[nH]cn1)NC(=O)[C@H](CC(C)C)NC(=O)[C@@H](NC(=O)[C@@H](NC(=O)[C@H](CCCCN)NC(=O)[C@H](C)NC(=O)[C@H](C)NC(=O)[C@H](CO)NC(=O)[C@H](CCCCN)NC(=O)[C@H](Cc1ccccc1)NC(=O)[C@@H](NC(=O)[C@H](CCCCN)NC(=O)[C@H](CC(C)C)NC(=O)[C@H](Cc1ccccc1)NC(=O)[C@H](CO)NC(=O)[C@H](CCCCN)NC(=O)[C@H](Cc1c[nH]c2ccccc12)NC(=O)[C@H](CCCCN)NC(C)=O)[C@@H](C)O)[C@@H](C)O)C(C)C)[C@@H](C)O)C(=O)N[C@@H](CO)C(=O)N[C@@H](CO)C(N)=O	Acinetobacter baumannii		IPM-R	87 strains		MIC geometric mean	3.47 µg/mL (≈ 1.18 µM)
Cl.N=C(CC(O)c1cc2c(F)cc(F)cc2c2cc(C(F)(F)F)ccc12)Nc1ccc(Br)cc1 (stereo not shown)	Plasmodium berghei	Peters 4-day test	ANKA, mouse	oral, 3 mg/kg		cure rate	0%
Cc1cn(-c2cc(NC(=O)c3ccc(C)c(Nc4nccc(-c5cccnc5)n4)c3)cc(C(F)(F)F)c2)cn1			Alzheimer's disease patients	150 mg, 6 months, group mean	direction not given	ADCS-ADL score	56.2 ± 12.5
CS(=O)(=O)Nc1ncn(-c2cc(F)c(COc3ccc(OS(=O)(=O)F)cc3)c(F)c2)n1	Eurofins safety panel targets (human)			10 µM		inhibition	≤ 50%
O=C(CCc1ccc(Br)cc1)N[C@H]1CCOC1=O	ExpR1 (Pectobacterium carotovorum)	cellulase activity, agonist	Pectobacterium carotovorum, single-ExpR1 strain	200 µM, 4 h	relative to: OHHL	activation	3%
C[C@H]1COCCN1c1nc(NCc2cccnc2C(F)(F)F)c2cccnc2n1	Brugia malayi		SCID mouse	dose not given, 6 weeks post-treatment, dosing x14d		mice with microfilariae	20%
COc1cc2ccc3oc([N+](=O)[O-])cc3c2cc1OC	Mycobacterium bovis BCG		1173 P2			MIC90	0.125 µg/mL (≈ 0.457 µM)
COc1ccc(-n2nc(C(C)=O)s/c2=N\N=C(/C)c2ccc(NC(C)=O)cc2)cc1	HepG2			5 µM		viability	6.18%
Oc1cc(O)cc(-c2cc3ccc(O)cc3o2)c1	MCF7	cell growth, MTT		7.25 µg/mL, 48 h		cell survival	77.24 ± 0.23%
C[C@H](C(=O)N[C@H]1COc2ccccc2[C@@H]1S(C)(=O)=O)c1ccc(F)cc1	NMDA receptor, rat, Phencyclidine site	binding		10 µM, Eurofins selectivity panel		inhibition	0%

A few entries again:
SMILES	target or system	test	system	conditions	how to read	quantity	value
COc1cc2ccc3oc([N+](=O)[O-])cc3c2cc1OC	Mycobacterium bovis BCG		1173 P2			MIC90	0.125 µg/mL (≈ 0.457 µM)
C[C@H]1COCCN1c1nc(NCc2cccnc2C(F)(F)F)c2cccnc2n1	Brugia malayi		SCID mouse	dose not given, 6 weeks post-treatment, dosing x14d		mice with microfilariae	20%
Oc1cc(O)cc(-c2cc3ccc(O)cc3o2)c1	MCF7	cell growth, MTT		7.25 µg/mL, 48 h		cell survival	77.24 ± 0.23%
